# Measurements gathered from unrelated publications.
# Parts stem from different laboratories: compare values within a part only. Changes are numbered by the printed parent chain.

# Set 1
# Target: Ras GTPase-activating protein-binding protein 1, C-terminal RGG region (G3BP1, Homo sapiens, UniProt Q13283)
# Sequence of UniProt Q13283 (whole entry, looked up): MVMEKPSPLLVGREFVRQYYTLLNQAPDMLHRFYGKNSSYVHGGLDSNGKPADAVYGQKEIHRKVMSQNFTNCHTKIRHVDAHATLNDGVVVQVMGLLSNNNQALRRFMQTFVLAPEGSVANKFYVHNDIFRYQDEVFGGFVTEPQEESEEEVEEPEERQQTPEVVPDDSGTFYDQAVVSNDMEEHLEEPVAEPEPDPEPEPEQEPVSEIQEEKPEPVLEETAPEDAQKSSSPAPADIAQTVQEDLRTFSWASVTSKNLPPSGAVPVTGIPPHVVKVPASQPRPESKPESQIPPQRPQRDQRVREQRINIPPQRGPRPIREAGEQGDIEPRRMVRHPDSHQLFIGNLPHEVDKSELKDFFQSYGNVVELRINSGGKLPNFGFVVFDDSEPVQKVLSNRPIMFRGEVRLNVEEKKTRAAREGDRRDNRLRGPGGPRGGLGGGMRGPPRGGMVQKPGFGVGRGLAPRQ
# Technique: RNA Bind-n-Seq
# Form: RNA
# Matrix: in vitro
# Concentration: 1 µM
# Setting: whole 134-nt RNA, ends assumed
# With: 150 mM KCl
# Relative to: input library
# Direction: higher = stronger binding
# All sequences stand within: GGGAGUUCUACAGUCCGACGAUC … UGGAAUUCUCGGGUGUCAAGG
Sequence,log2 enrichment
UAACUUUAGAGGAGGAUCUGAUGGAUAUGGCAGUGGACGUGGAUUUUGGGAUGGCUAUAAUGGGUAUGGAGGAGGACCUGGAGGUGGCAA,-0.9
CCUGUGCUACACAUCGUAUGUACCGAAUCGGGAAAAAAAGGGAAAAAAAGGGAAAAAGGGAAAGUAUUAUGUUACGCCGUUCGGAUCUGC,-1.78
GUCCUGUGCUACACAUCGUAUGUACCGAAUCGGGUUUUUGGGGUUUUUGGGGUUUUUGGAAAGUAUUAUGUUACGCCGUUCGGAUCUGCA,-0.461
AAGUCCUGUGCUACACAUCGUAUGUACCGAAUCGGUUUUUUUGGAAAAAAAGGAGGAAAGUAUUAUGUUACGCCGUUCGGAUCUGCACUU,-2.3
AGUCCUGUGCUACACAUCGUAUGUACCGAAUCGGGGUUUGGGGUGGGGAAAAAGGGGAAAGUAUUAUGUUACGCCGUUCGGAUCUGCACU,1.23
ACCAUGCAGGUGGGUAUCUUUGGGAAGUGGGGCAAGGGGGGGAUAGGGAGGGGGGUAACACUUUGGGAACAGGUGGUCCCAGGUCGUUUC,-1.51
ACCAUGCAGGUGGGCAUCUUUGGGAAGUGGGGCAAGGGGGGGAUAGGGAGGGGGGUAACACUUUGGGAACAGGUGGUCCCAGGUCGUUCC,2.76
CUUGACCCUCAACACCAACCAUGGGCAUAUCCUGGUGGAUUACUCCAAGAACCUGGUGACGGAGGACGUGAUGCGGAUGCUGGUGGACUU,-2.07
CAAGUCCUGUGCUACACAUCGUAUGUACCGAAUCGGGUUUGGGAAAGGGUUUGGGAAAGUAUUAUGUUACGCCGUUCGGAUCUGCACUUC,2.24

# Set 2
# Target: CCNB1, cyclin fold, Cln2 fusion (human)
# Technique: yeast growth competition, sequencing
# Matrix: yeast
# Setting: strong parent motif
# Relative to: not given
# Direction: higher = stronger binding
# Starting sequence: PKMYT1 docking peptide (human); SFEPRNLLSLFED
Substitution,normalised enrichment score
SFEPRQLLSLFED [N6Q],0.146
SFEPRNLLYLFED [S9Y],1.71
WFEPRNLLSLFED [S1W],2.02
SFEPRNLDSLFED [L8D],0.247
SFEPRNLLALFED [S9A],1.71
SQEPRNLLSLFED [F2Q],0.00297
SFEPRNLLDLFED [S9D],1.04
SFEPINLLSLFED [R5I],0.974
SFEKRNLLSLFED [P4K],0.214
SFEPRNLLSLFEV [D13V],0.75
SFEPRLLLSLFED [N6L],-0.164
SFEPRNLLSLFEH [D13H],0.00507
SFEPRNLLSLFWD [E12W],0.223
SFEPRNLLSLFEI [D13I],0.424
SFEPLNLLSLFED [R5L],0.696
SFEPRNLYSLFED [L8Y],1.6
SFEPRNLLSLFGD [E12G],-0.137
SFEPRNLLSLFRD [E12R],0.225
SFEPRNLLSNFED [L10N],0.565
SFVPRNLLSLFED [E3V],2.34
SFEPRNLSSLFED [L8S],0.396
SREPRNLLSLFED [F2R],0.304
SFEPRNLLSHFED [L10H],0.362
SFEPRNLISLFED [L8I],0.725

# Set 3
# Target: ATF5, bZIP domain (human)
# Technique: DHFR protein complementation
# Matrix: yeast
# Setting: single substitutions, most at no-binding floor
# Relative to: wild-type JUN-FOS pair
# Direction: higher = stronger binding
# Starting sequence: JUN, bZIP domain (human); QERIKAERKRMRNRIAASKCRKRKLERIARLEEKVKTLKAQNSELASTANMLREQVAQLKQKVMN; partner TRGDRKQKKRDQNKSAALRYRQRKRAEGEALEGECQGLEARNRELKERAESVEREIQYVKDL
Substitution,binding fitness [natural log]
K36L,-1.33
N42R,-1.45
K36A,-1.29
K34C,-1.33
E54W,-1.48
K39H,-1.46
A46K,-1.47
Q55T,-1.47
I28D,-1.51
T48V,-1.46
S43R,-1.47
S47F,-1.46
L31H,-1.35
A46I,-1.46
V35M,-1.59
L38F,-1.56
I28R,-1.38
E33T,-1.54
L31F,-1.54
L38T,-1.4

# Set 4
# Target: ABI1, truncated, D143A, DHFR fusion (Arabidopsis thaliana)
# Technique: DHFR PCA, deep sequencing
# Matrix: yeast
# Setting: methotrexate growth selection, single substitutions
# With: (+)-ABA 0 µM
# Relative to: wild-type fitted maximum
# Direction: higher = stronger binding
# Starting sequence: PYL1, truncated, DHFR fusion (Arabidopsis thaliana); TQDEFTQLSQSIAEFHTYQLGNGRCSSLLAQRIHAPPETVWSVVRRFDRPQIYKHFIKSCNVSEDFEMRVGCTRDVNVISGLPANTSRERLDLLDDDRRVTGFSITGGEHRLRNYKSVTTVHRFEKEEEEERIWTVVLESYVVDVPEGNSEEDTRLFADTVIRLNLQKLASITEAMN; partner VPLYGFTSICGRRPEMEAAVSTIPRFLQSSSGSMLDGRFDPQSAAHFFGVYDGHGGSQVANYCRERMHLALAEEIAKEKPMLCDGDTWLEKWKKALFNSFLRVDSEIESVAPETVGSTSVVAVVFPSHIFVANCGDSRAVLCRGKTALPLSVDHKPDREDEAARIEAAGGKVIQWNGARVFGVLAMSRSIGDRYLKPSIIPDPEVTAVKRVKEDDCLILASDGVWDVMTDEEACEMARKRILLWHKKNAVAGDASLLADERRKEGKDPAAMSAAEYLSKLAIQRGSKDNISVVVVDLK
Substitution,relative binding score [%]
V70H,-2
G108D,7.88
R123Y,-2.89
C25F,9
I133P,46.8
A170I,-11.3
Y141D,4.74
K116C,5.79
R32Q,14.8
D92Q,12.7
V136K,-8.11
E147Y,10.5
G21T,31.7
Q10D,49.7
I33F,-1.28
G102T,-5.76
K168M,5.24
T73K,3.99
D65Y,-0.987

# Some of these lines once more (set 3):
Substitution,binding fitness [natural log]
K34C,-1.33
S47F,-1.46
L38F,-1.56
V35M,-1.59
L38T,-1.4
L31F,-1.54
N42R,-1.45
I28D,-1.51
K39H,-1.46
Q55T,-1.47
